# Experimental data pooled from the literature.
# Each numbered part is a random draw from the data of one study; scales do not carry over between parts.

# Set 1
# Target: RNA binding protein fox-1 homolog 2, RRM domain, GST-SBP tag (RBFOX2, Homo sapiens, UniProt O43251-10, residues 100-194)
# Technique: RNA Bind-n-Seq
# Molecule type: RNA
# Medium: in vitro
# Tested at: 365 nM
# Notes: natural RNA segment, single round, ends assumed
# Reference: no-protein control
# Reading: higher = stronger binding
# Target sequence (chain): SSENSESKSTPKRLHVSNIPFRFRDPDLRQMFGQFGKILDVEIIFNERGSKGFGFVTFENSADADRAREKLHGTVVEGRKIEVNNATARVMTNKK
Strand,RBNS enrichment (R)
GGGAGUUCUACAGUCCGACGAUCGAAAUCAGGAUAAUUAGUAACAAUUCUAGUUCUUUCUCUCCCCGCUCUACUUCUUUUUUUUCCCUCUUUCUCCCUUUCUCUGUCUAUCACCCUCCAUUUUUUCAUUACUCUGGAAUUCUCGGGUGCCAA,1.22
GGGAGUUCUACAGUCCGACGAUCAUGUUCAGCUUUAGAUAUGUGUCGUAAUGGGAGUCUGAAAACUGUAAUAAACUGUAUUCAUAUCCUGGCUGCUUUGUCUCUGUUGAUUUAGGGGGGUGGGAGAGAGGAGGUGGAAUUCUCGGGUGCCAA,1.08
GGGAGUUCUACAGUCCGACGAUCUUGUUUUUAGCCAUGUAACUACAAACAGAUAUUCUCUUGAUGUCUUAGUAAAUUUGCAUUUGAUAUAUCAUUGAUGAGAUUUUGUUGUUAUGUAAUAUUCUUUGGCUACGUGGAAUUCUCGGGUGCCAA,0.359
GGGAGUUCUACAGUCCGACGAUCGGAUCUUUGCCUCUCAUUAAAAGUCAUGGAAAAUAUACACAUUUAAGGUGAAUAGACACAUUAAGGUGGCAAAUGAUCUACUUUUUCAAGUAAUAUUGCUCCUUUAAAAGUGGAAUUCUCGGGUGCCAA,0.472
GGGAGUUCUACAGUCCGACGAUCCACACUGACUAUGUCUUUAGGAUUUUAAGUUUAAGUUGUAGCUGCAGAUGGGGGCCUGUGGCUCCCGUUUUCAUUGUAGUAUUUUAUCCCCUGCACCCACUCCCUUCAUAUGGAAUUCUCGGGUGCCAA,0.274
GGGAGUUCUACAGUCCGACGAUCCAGCCUCUGGGUCCAGCCAGAGCCCCUGGCUUCUCCGCCACCCACACCCUUCCCACCCUGCUGUGGGGCCCUGCCUUUGUGGGGAGCAGCCAGCCCUCUGCCCCUGCCCAUGGAAUUCUCGGGUGCCAA,0.347
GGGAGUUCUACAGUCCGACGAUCCUCUAGGACUGCCUCCCACUGCGGCCCCUCACCUGACUUCAGGGUAUGGGGAGGGAGGGAGCCAGUGCUCCAAGGCCAGGGGGCUUUGCUCAUGAGAGAUGUCAGGCUUCUGGAAUUCUCGGGUGCCAA,0.236
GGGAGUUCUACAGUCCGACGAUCUCCGCCAUACUGUUCUGGUGAUAGUGAAUAGAUCUCAUGAGAGCUGAUGAUUUUAUAAGAGGUUUCCCCUUUUGCUUAGUUCUCAUUCUCUCUUGCCUGCCGCCAUGUAAUGGAAUUCUCGGGUGCCAA,0.286
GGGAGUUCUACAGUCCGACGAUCCCCAAAAGUGUCCUCGGCAUGGAUCUUGAACAGAACCAGUAUCUGUCAUGGAACUGAACAUUCAUCGAUGGUCUCCAUGUAUUCAUUUAUUCACUUGUUCAUUCAAGUAUUGGAAUUCUCGGGUGCCAA,0.262
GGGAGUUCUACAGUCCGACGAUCGCACUUACAAGUGCCUGUCUGGAGGGUUCUCAAGUGUCAGCGCCACACAAGUCAUCCUGCCUGGCUGCAGUUAGCUGUCAUUGUCAUUGAAAAUCUUAGUGUCUCCUGGUUGGAAUUCUCGGGUGCCAA,0.256
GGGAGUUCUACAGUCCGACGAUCAAAGGGAAACUAAAUUGUUCCCUGGAUUCCAGGAGAUGGUCGGCACAGAUGGUCGUCACGUGGGACCUGGAAUUGGAGACACUGCAGCGAGCAGCUAGAAAGCCUCUUGUUGGAAUUCUCGGGUGCCAA,0.295
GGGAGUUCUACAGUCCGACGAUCAGCACUUAUGUUUACGGAUAUUUUAAACUCUGUUAGAGAGCAGCCUUUGAAAAUCCCCAAUUUGGUUCUGCUUUUUGACCUCUCUCUACCUUUUCAGGGUAAUCUUUGUGUGGAAUUCUCGGGUGCCAA,0.505

# Set 2
# Target: RING finger protein unkempt homolog, zinc fingers 1-6, GST-SBP tag (UNK, Homo sapiens, UniProt Q9C0B0, residues 30-357)
# Sequence of UniProt Q9C0B0 (30-357, looked up): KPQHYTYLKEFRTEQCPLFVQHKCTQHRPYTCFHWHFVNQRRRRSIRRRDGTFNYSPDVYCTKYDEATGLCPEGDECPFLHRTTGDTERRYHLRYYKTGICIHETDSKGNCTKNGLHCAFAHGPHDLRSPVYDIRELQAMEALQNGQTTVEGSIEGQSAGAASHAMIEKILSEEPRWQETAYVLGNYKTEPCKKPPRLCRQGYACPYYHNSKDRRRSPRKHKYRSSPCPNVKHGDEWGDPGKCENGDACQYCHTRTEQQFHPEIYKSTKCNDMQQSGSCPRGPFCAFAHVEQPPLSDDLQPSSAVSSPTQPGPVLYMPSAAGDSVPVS
# Technique: RNA Bind-n-Seq
# Molecule type: RNA
# Medium: in vitro
# Tested at: not given
# Notes: RNA with constant flanks, ends assumed
# Reference: input RNA pool
# Reading: higher = stronger binding
Strand,bound/input enrichment [ratio]
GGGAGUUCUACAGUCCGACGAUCAAUGCUUGUUGGGUGCAUAAACACUUCACGGAAGACAUCCAGACGCGUCAGUACCGCUCCACCGAGGUUUUAAUAGGAGCGGGGUACAGCACCCCUGCGGACAUCUGGAGCACGGCGUGUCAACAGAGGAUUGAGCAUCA,0.1
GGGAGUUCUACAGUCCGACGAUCGAGCGUCUCGCUCGAACCGGGAUCAUAGUGACCACGAGUGAGGCUGUUCUGCUUCAGCUGGCCGCUGAUAAGGACCAUCCAAAAUUCAAGGAAAUUCAGAAUCUAAUUAAGGCGAGUGCUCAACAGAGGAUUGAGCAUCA,0.281
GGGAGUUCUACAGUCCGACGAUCUUUUGGAAACAGUUCAGGCUUUGGGGUGAGCCUGUUAAUCUGCGUGAACAACACGAUGCUUCCGAAUUUUUUAAUUCAUUGGUGGAUAGUUUAGAUGAAGCUUUAAAAGCUUUAGGACAUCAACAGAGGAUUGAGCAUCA,1.5
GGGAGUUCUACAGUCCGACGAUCUAGAUUUGAAUACAAAAUCUGAUACAAUAUGUUAAAGAAUUAAGAACCUGAAGAUGAAGAUUCCGAGCAUAUUUACCUGGAUUUUACUUAUUUGCUAGCAAAAUUCCCCCUUGUCACAGACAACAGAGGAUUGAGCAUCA,0.88
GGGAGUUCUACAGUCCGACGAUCGUUCAAAUAUUAUGUGAAUGUUGUUAAGAAAACAGACUGUAAUUUACCCUAGUAAACCCGCCGUAAUGUCAAGAUUCAAACCUAGGUGUACUCAAAAAUCAGCUCUCUAGUGUUAAGUCCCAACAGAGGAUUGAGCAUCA,0.592
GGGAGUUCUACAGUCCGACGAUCCACCCUAUAGAGGUAGUUGUCACACACACACACACACACACACACACACUGUUCACUUCCCCGCUCCUUUCCCCUCCACCUUUCUUUCAGAGUUUGUUCUCAUUUUUCAGAAUUCUUCUGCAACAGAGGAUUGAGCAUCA,2.58
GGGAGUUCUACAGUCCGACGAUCAUCCAGGCAGCUGACAGCACAGCCGUGAAUGGCAGCAUCACACCCACAGACAAAAAGACCGGAUUUUUGGGCCUUGGUCUCAUGGGAAGUGGAAUCGUCUCCAACUUGCUAAAAAUGGGUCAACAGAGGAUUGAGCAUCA,0.14
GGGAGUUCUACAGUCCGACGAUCUUCUUCACCCGGAACCAUCUGCCUGUACCUAACCUGGAUCCAGACACCUAUCGCUUACACGCCGCCGGAGCACCUGGGGGUCAGUCACUGUCUCUUUCCCUGGAUGACUUGCACAACUUUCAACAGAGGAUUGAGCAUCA,0.141
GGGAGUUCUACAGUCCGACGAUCCAGAUCCGAUGUCUCUGCCAGCUUGGGGCUGAAGUUACCGUGGUACCCUGGGACCACGAGUCCGACAGUCAGAAAUAUGACGGUCUCUUCCUAAGUAAUGGACCCGGUGACCCUGCCUCUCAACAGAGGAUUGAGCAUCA,0.1

# Set 3
# Target: Interferon regulatory factor 3, full length, phosphomimetic (IRF3, Homo sapiens, UniProt Q14653, residues 1-427, S386D/S396D/S398D/S402D/T404D/S405D)
# Sequence of UniProt Q14653 (whole entry, unmodified, looked up): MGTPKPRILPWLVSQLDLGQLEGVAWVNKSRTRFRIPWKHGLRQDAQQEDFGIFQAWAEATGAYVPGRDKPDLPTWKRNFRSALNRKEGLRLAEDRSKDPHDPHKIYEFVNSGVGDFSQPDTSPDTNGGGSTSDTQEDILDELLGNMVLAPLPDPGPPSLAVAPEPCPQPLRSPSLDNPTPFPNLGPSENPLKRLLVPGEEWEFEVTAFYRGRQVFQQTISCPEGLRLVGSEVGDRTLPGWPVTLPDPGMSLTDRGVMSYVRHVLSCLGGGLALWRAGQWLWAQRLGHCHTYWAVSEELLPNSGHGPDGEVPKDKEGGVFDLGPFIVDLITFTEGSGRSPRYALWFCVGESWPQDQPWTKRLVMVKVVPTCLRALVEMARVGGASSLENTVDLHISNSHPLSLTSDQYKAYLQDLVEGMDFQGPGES
# Technique: protein-binding microarray
# Molecule type: double-stranded DNA, one strand shown
# Medium: in vitro
# Tested at: 2540 nM top
# Notes: 60-bp whole probe
# Together with: salmon DNA 0.4 mg/ml
# Reference: random background probes
# Reading: higher = stronger binding
# Constant ends, left off below: GCCTAGCAC … GTCTTGATTCGCTTGACGCTGCTG
Strand,fitted relative affinity
TTAGAACAGGGGTATCGATTAGTGCTA,-0.309 z-score
TCAGTTACCCACCTCAGACTGTGCTAG,2.56 z-score
ACCCTGCCTAAAGCTAGTTTGTGCTAG,0.04 z-score
TTAGGTATCGGGACAGGGTTAGTGCTA,0.88 z-score
CTGCTGCAGGCAGCACGCTGGTGCTAG,-0.539 z-score
TTGTAGATGCCTTTCTCTTGGTGCTAG,3.54 z-score
GTCGGTTTCGACTATCGGGACGTGCTA,4.19 z-score
TTGGTTTTCATTATTGCTTCGTGCTAG,2.55 z-score
TTAGATTTCGTGTTTCGATTAGTGCTA,2.19 z-score

# Mixed results
Substance,target,assay,system,conditions,scale,quantity,result
"PhoQ, residues 284 288 289 292 302 303 TLSLKA","PhoP, residues 12 14 15 18 19 HEGLL (Escherichia coli, UniProt P23836)","Sort-seq, measured: YFP reporter",E. coli,"PhoQ-PhoP variant library, together with: 10 µM Mg2+","reference: high Mg2+ state, higher = stronger signaling",fold induction,1.18

# Repeated from above (set 1):
Strand,RBNS enrichment (R)
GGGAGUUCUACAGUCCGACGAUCGGAUCUUUGCCUCUCAUUAAAAGUCAUGGAAAAUAUACACAUUUAAGGUGAAUAGACACAUUAAGGUGGCAAAUGAUCUACUUUUUCAAGUAAUAUUGCUCCUUUAAAAGUGGAAUUCUCGGGUGCCAA,0.472
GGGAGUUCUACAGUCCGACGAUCCACACUGACUAUGUCUUUAGGAUUUUAAGUUUAAGUUGUAGCUGCAGAUGGGGGCCUGUGGCUCCCGUUUUCAUUGUAGUAUUUUAUCCCCUGCACCCACUCCCUUCAUAUGGAAUUCUCGGGUGCCAA,0.274
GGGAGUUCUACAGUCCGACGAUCCAGCCUCUGGGUCCAGCCAGAGCCCCUGGCUUCUCCGCCACCCACACCCUUCCCACCCUGCUGUGGGGCCCUGCCUUUGUGGGGAGCAGCCAGCCCUCUGCCCCUGCCCAUGGAAUUCUCGGGUGCCAA,0.347
